Published values pooled from the literature.
Compare with care: the assays were run in different laboratories. Several values in a cell are separate wells, animals, samples, runs or records. Numbers after ± are the reported error.

Compound	assay	system	setting	scale	endpoint	value
CCC[C@@](N)(CO)CCc1ccc(OCCCCCC(C)C)cc1	–	C57BL/6 mice	oral, 10 mg/kg	–	oral bioavailability	16%
CC(C)C[C@H](NC(=O)[C@H](CCC1CCCCC1)NC(=O)[C@@H]1CCCN1C(=O)c1ccc(F)cc1)C(=O)NC(C)(C)C(=O)N[C@@H](CC(C)C)C(=O)N[C@@H](CC(C)C)C(=O)NC(C)(C)C(=O)NC(C)(C)C(=O)NCCC(=O)NC1(CN(C)C)CCC1	circular dichroism	phosphate buffer	pH 7.4, 20 °C	–	alpha-helix content	75.7%
CCN(CCO)CCCC(C)Nc1ccnc2cc(Cl)ccc12 (centres unmarked)	–	newly diagnosed glioblastoma patients	oral, 400 mg/dose, grade 1, added: radiotherapy plus temozolomide	–	lymphocyte count decreased patients	14%
O=C(O)CCCOc1ccc(F)cc1-c1cc(-c2ccccc2C(F)(F)F)n(-c2ccccc2)n1	refers to: ovaries	Crl:CD(SD) rats, female	iv, 25 µg/kg, 1 day	–	organ weight	84.6 ± 15.4 mg
C=CCNc1c(O)cc2c(O)c1C[C@@H](C)C[C@H](OC)[C@H](O)[C@@H](C)/C=C(\C)[C@H](OC(N)=O)[C@@H](OC)/C=C\C=C(/C)C(=O)N2	–	unresectable or metastatic STS, GIST, other	intravenous, 225 mg/m^2	–	patients with myalgia TEAE	0%
O=C(c1ccc(F)c(F)c1Nc1ccc(I)cc1F)N1CC(O)([C@@H]2CCCCN2)C1	–	patients aged 6 to sample A years	oral, dose not given	–	adverse events of special interest	39%
C[C@@H]1OC(=O)NN=C1c1ccc(-c2ccc(F)cc2)c(C(F)(F)F)c1	phase I trial, refers to: alkaline phosphatase increased	human patients	5 mg load, 0.25 mg daily, all grades	–	patients with TEAE	0%
CC(=O)c1c(C)c2cnc(Nc3ccc(C4CCN(CCS(C)(=O)=O)CC4)cn3)nc2n(C2CCCC2)c1=O	–	HR+/HER2- advanced breast cancer patients	oral, 100 mg	–	patients with serious AE	33.3%
COc1ncccc1-c1cnn2ccc(N3CCN(C(=O)OC(C)C)CC3)nc12	–	rat, STZ model, plasma	oral, 10 mg/kg, 240 min	–	drug concentration	3.1 µM
C[C@@H]1NC(=O)[C@H](CCCCNC(=O)CO/N=C/C(=O)NCCCC[C@@H]2NC(=O)[C@@H](Cc3ccccc3)NC(=O)[C@H](CC(=O)O)NC(=O)CNC(=O)[C@H](CCCNC(=N)N)NC2=O)NC(=O)CNC(=O)[C@@H]2CCCN2C(=O)[C@H](CCCCNC(=O)CO/N=C/C(=O)NCCCC[C@@H]2NC(=O)[C@@H](Cc3ccccc3)NC(=O)[C@H](CC(=O)O)NC(=O)CNC(=O)[C@H](CCCNC(=N)N)NC2=O)NC(=O)[C@H](CCCCNC(=O)[C@H](CCCCN)NC(=O)[C@H](Cc2ccccc2)NC(=O)CNC(=O)CN2CCCNCCNCCCNCC2)NC(=O)[C@H](CCCCNC(=O)CO/N=C/C(=O)NCCCC[C@@H]2NC(=O)[C@@H](Cc3ccccc3)NC(=O)[C@H](CC(=O)O)NC(=O)CNC(=O)[C@H](CCCNC(=N)N)NC2=O)NC(=O)CNC(=O)[C@@H]2CCCN2C(=O)[C@H](CCCCNC(=O)CO/N=C/C(=O)NCCCC[C@@H]2NC(=O)[C@@H](Cc3ccccc3)NC(=O)[C@H](CC(=O)O)NC(=O)CNC(=O)[C@H](CCCNC(=N)N)NC2=O)NC1=O [copper-64 labelled]	–	normal mice, intestine	intravenous, 0.74 MBq, 3 h post-injection	–	tissue uptake	1.8 ± 0.12 %ID/g
COc1ccc(-c2c(-c3ccc(C#N)c(F)c3)nc(N3CCC(N)CC3)n(C)c2=O)cc1F	refers to: Pruritus	relapsed/refractory marginal zone lymphoma patients	oral, 60 mg, grade 3 to 4, dose expansion	–	treatment-related adverse event incidence	0%
Cc1cc(C)c(CNC(=O)c2cc(Cl)c3c(c2C)O[C@@](C)([C@H]2CC[C@H](N(C)C)CC2)O3)c(=O)[nH]1	–	human, relapsed/refractory NHL	concentration not given, all TEAEs, grade 5	–	Hypercalcaemia incidence	0%
CC(C)[C@@H]1NC(=O)CNC(=O)[C@H](CC(N)=O)NC(=O)[C@H](CCCNC(=N)N)NC(=O)[C@H](Cc2ccc(O)cc2)NC(=O)[C@H](C(C)C)NC(=O)[C@@H](NC(=O)[C@@H](NC(=O)[C@H](CC(N)=O)NC(=O)[C@H](Cc2c[nH]c3ccccc23)NC(=O)[C@H](C)NC(=O)[C@H](Cc2ccccc2)NC(=O)CN)C(C)C)CSSC[C@@H](C(=O)N[C@@H](Cc2cnc[nH]2)C(=O)N[C@@H](CCCNC(=N)N)C(=O)N[C@@H](CCCNC(=N)N)C(=O)N[C@@H](C)C(=O)N[C@@H](CC(N)=O)C(N)=O)NC(=O)[C@H](C(C)C)NC(=O)[C@H](CCCNC(=N)N)NC1=O	–	ICR mice, blood	intraductal mammary, 5 mg/kg, day 5	–	plateletcrit	0.02 ± 0.01%
CN1CC[C@@H](c2c(O)cc(O)c3c(=O)cc(-c4ccc(C(F)(F)F)cc4Cl)oc23)[C@@H]1CO	refers to: Hypoalbuminemia	relapsed AML	oral, 100 mg, grade 3-4, intermittent dosing	–	patients with adverse event	0%
O=C(Nc1ccccc1)C1CCN(C(=O)Oc2cccnc2)CC1	adverse event reporting	healthy women	oral, 60 mg	–	subjects with Hypoaesthesia adverse event	0%
Cc1ccc(F)c2cc(C(=O)N[C@@H]3CCC[C@H](N4CC[C@H](N(C)S(C)(=O)=O)C4)C3)[nH]c12	–	CD1 mouse, plasma	oral, 100 mg/kg, 24 h	–	plasma concentration	4.6 ng/mL
COc1cc2c(Oc3ccc4[nH]c(C)cc4c3F)ccnc2cc1OCC1(N)CC1	–	paediatric recurrent refractory sarcoma	10 mg	–	grade 3 Vomiting	0%
O=S(=O)(Nc1ccccc1)c1ccc(NC(=S)Nc2ccccc2)cc1	–	male mice, heart	oral, 80 mg/kg daily 14 days	baseline: body weight	relative organ weight	0.51%

Compound	assay	system	setting	scale	endpoint	value
Cc1cn([C@H]2O[C@@H](CO[P@@](=O)(N[C@@H](C)C(=O)OC(C)C)Oc3ccccc3)[C@H](O)[C@H]2F)c(=O)[nH]c1=O	refers to: Thrombocytosis	human	25 mg	–	patients with TEAE	0%
O=[N+]([O-])c1ccc2c(c1)S(=O)(=O)C=C2	flow cytometry	male C57BL/6 mice, spleen	i.p., 20 mg/kg, 8 days	baseline: CD45+ cells	CD8+ cells	12.2%
CC(C)(c1ccccc1)c1cc(-n2nc3ccccc3n2)c(O)c(C(C)(C)c2ccccc2)c1	–	EpiSkin reconstructed epidermis	36 h	–	mass recovery	49.1%
CCCC(CCC)NC(=O)c1ccc2c(c1)OCO2	–	Swiss albino CD-1 mice, male, bone marrow	intraperitoneal, 175 mg/kg, 36 h	–	PCE/NCE ratio	0.9
CN[C@H]1CC[C@@H](c2ccc(Cl)c(Cl)c2)c2ccccc21	–	CD-1 mouse, male, plasma	intraperitoneal, 30 mg/kg	–	AUC(0-inf)	3300 ng·h/mL
C[C@@H](NC(=O)N1C(=O)[C@H](Cc2ccnc(N)c2)[C@H]1C(=O)O)C1CCCCC1	–	healthy Chinese adult volunteers	continuous intravenous infusion, dose not given, 5.0 days, CTCAE 5.0, all doses	–	adverse events excluding prolonged aPTT	52.5%
CCc1ccc(CC/C=C/c2ccc3c(c2)C(=O)CC3)cc1	–	Sprague-Dawley rat, female	oral, 30 mg/kg/day, 14 days	–	Albumin	36.3 g/L
CC(C)C[C@H](NC(=O)[C@H](CCCCN)NC(=O)OCC1c2ccccc2-c2ccccc21)C(=O)N[C@H](C(=O)N[C@@H](Cc1ccccc1)C(=O)N[C@@H](Cc1ccccc1)C(=O)N[C@@H](CCCCN)C(=O)NCC(=O)N[C@@H](Cc1ccccc1)C(=O)N[C@@H](C)C(=O)N[C@@H](Cc1c[nH]c2ccccc12)C(=O)N[C@@H](CC(N)=O)C(=O)N[C@H](C(=O)N[C@H]1CSSC[C@@H](C(=O)N[C@@H](Cc2c[nH]cn2)C(=O)N[C@@H](CCCNC(=N)N)C(=O)N[C@@H](CCCNC(=N)N)C(=O)N[C@@H](C)C(=O)N[C@@H](CC(N)=O)C(N)=O)NC(=O)[C@H](C(C)C)NC(=O)[C@H](CCCNC(=N)N)NC(=O)[C@H](C(C)C)NC(=O)CNC(=O)[C@H](CC(N)=O)NC(=O)[C@H](CCCNC(=N)N)NC(=O)[C@H](Cc2ccc(O)cc2)NC(=O)[C@H](C(C)C)NC1=O)C(C)C)C(C)C	HPLC	mouse liver homogenate	2560 µM, 6.00 h, 50 mg/mL tissue	–	remaining peptide	45% and 38.3% and 42.5%
CC(C)[C@H](C(=O)O[C@H](C#N)c1cccc(Oc2ccccc2)c1)c1ccc(Cl)cc1	refers to: CYP2C9	human, age 5 years	–	–	enzyme contribution to clearance	19.4%
NC(=O)[C@H]1CCN(c2ncnc(N)c2F)C[C@@H]1N1CCC[C@@H](Nc2cc(Cl)cc(C(F)(F)F)c2)C1=O	–	B-cell malignancy patients	oral, 410 mg twice daily, dose	–	grade ≥3 bilirubin increase	0%
NC(=O)[C@@H]1CC(F)(F)CN1C(=O)c1ccc(N2CC(F)(F)C2)c(OCC2CC2)n1	–	C57BL/6 mice	oral, dose not given	–	oral bioavailability	120%
CC(C)(O)c1cc(Nc2cc(Oc3cn(C4CC4)nc3C3CCOCC3)ccn2)ccn1	Diarrhea	patients with advanced cancer, grade 4 glioma expansion	oral, 50 mg twice daily, grade ≥3, 2 weeks on/2 weeks off schedule	–	treatment-related adverse events	0%
C[C@]1(CO)Cc2ncn(-c3ccc(C#N)c(Cl)c3)c2C(=O)O1	–	human	80 mg multiple doses, fasted	–	subjects with drug-related headache	0%
CO[C@H]1C[C@@H]2CC[C@@H](C)[C@@](O)(O2)C(=O)C(=O)N2CCCC[C@H]2C(=O)O[C@H]([C@H](C)C[C@@H]2CC[C@@H](OC(=O)NCCOCCOCCOCCOCCOCCOCCOCCOCCC(=O)N3CCc4cc(Cn5nc(-c6ccc7oc(N)nc7c6)c6c(N)ncnc65)ccc4C3)[C@H](OC)C2)C[C@@H](O)[C@H](C)/C=C(\C)[C@@H](O)[C@@H](OC)C(=O)[C@H](C)C[C@H](C)/C=C/C=C/C=C/1C	–	patients with advanced solid tumours	intravenous, 16 mg weekly, any grade	–	constipation incidence	25%
O=c1ccc2ncc(=O)n3c2n1C[C@H]3CN1CCC(NCc2cc3c(cn2)OCCC3)CC1	–	healthy human volunteers	oral, 1500 mg, rifampicin cohort, added: rifampicin 600 mg	–	incidence of cardiac disorders	6%
COc1cc(C(=O)NC2CCN(C)CC2)c(F)cc1Nc1ncc(C(F)(F)F)c(Oc2cccc3c2C(=O)N(C)C3)n1	–	human patients, urine	oral, 10 mg single dose, geometric mean	baseline: dose	fraction excreted in urine (0-24 h)	2.04%
Cc1cccc(Cn2nc(C3CC3)c3c(NC(=O)c4cnc5cc(OCCN6CCN(C)CC6)ccn45)cccc32)n1	refers to: Dehydration	human platinum-resistant ovarian cancer	oral, dose not given, all-causality	–	adverse events incidence	18.2%
